Published values from different studies.
Every numbered part comes from another study and shows a few of its results, in no order.

Set 1 — method: RNA Bind-n-Seq; molecule type: RNA; sample: in vitro; concentration: 365 nM; relative to: no-protein control; direction: higher = stronger binding
Target: RNA binding protein fox-1 homolog 2, RRM domain, GST-SBP tag (RBFOX2, Homo sapiens, UniProt O43251-10, residues 100-194)
Notes: natural RNA segment, single round, ends assumed
Target sequence (chain): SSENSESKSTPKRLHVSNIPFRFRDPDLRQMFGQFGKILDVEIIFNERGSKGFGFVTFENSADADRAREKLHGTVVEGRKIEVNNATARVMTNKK
For `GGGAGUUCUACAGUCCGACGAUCGUAUCCUGACUGAUUCAACCCAGCCGAGCAUAAAUUGACUUGAGCGCCUUACCUUUGAUGUCUGAAGCGAAACUCCUUUCACCAAGGGCCAGAUUCGGAAACUUCAACCUUGGAAUUCUCGGGUGCCAA`, “RBNS enrichment (R)” read 0.354.
Under “RBNS enrichment (R)”, `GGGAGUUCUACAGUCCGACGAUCUUCCCCAGAAGUCAUUUUCAGCCUUAAUUCUCAUCAUGUAUAAAUUAACAUAAAUCAUGCAUGUCUGUUUACUUUAGUGACGUUCCACAGAAUAAAAGGAAACAAGUUUGUGGAAUUCUCGGGUGCCAA` is recorded as 1.08.
`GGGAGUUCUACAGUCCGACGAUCUACAUAGUAAUUUUGGUUCUGAAUUUUACAUUAAAUUAUUUGAAUAUAUACAGACCUAAAUUUUAAAAUCUGUACAUAUAUUAUUUUGAUGUAUUAAGAUUGAUAAUAUUUGGAAUUCUCGGGUGCCAA` — result for “RBNS enrichment (R)”: 0.745.
`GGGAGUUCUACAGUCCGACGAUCCCCUCCAUACCUCUAGUUGUGUCUGAUGCUCCGUGCUGUUCGGGAAUUGUUUUAUGUACACUUGUCAGGCAGAAAAGGUAGUGACCGGCCCGGCGUGGGCACACAGACAGUGGAAUUCUCGGGUGCCAA`: “RBNS enrichment (R)” 0.507.
`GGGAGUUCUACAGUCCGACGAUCGUGCACCUAUUGGCUCUUCUAGCUGACUCUUCUGGUUGGGCUUAGAGUCUGCCUGUUUCUGCUAGCUCCGUGUUUAGUCCACUUGGGUCAUCAGCUCUGCCAAGCUGAGCUGGAAUUCUCGGGUGCCAA` — result for “RBNS enrichment (R)”: 0.962.
`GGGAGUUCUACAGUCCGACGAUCAGUGUAAUCUGCAGUGUCGUAACUAAAGUUACUGGCUUGGUCUUAUUUGCACAGUUUUUGCGUCUUGUUUGCUUCUUGCAUCUGAUUAACUAGAAUAUUUCUCUUUCCCCUGGAAUUCUCGGGUGCCAA` — result for “RBNS enrichment (R)”: 0.693.
For `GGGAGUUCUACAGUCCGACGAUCACUUACAGAAUUAAAGAUGGCCCAUAAGGAAUUCCAGACCAAUAUUUCUUCCUGCGGUUUAUUCUAUGUUUUAUAUAUUAUCUAAAUAUAUGUAUAUGCUGUGUCAUACUUGGAAUUCUCGGGUGCCAA`, “RBNS enrichment (R)” read 0.773.
`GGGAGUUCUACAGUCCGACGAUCGUUUCUCAUUUACUUUUUACUCUUAAUACUAAUGCUUAUGUGUUUCACUGAGUAUCAAAACUGCCAAGAAGGGUAACUAAGGUUCCUAAACUGUAAGAUGAGCAGGAGAUUGGAAUUCUCGGGUGCCAA`: “RBNS enrichment (R)” 0.292.
For `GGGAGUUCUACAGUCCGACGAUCGUUAAUCCUCUCCAGCAGGAUGCCCACUGGAUAUAUUAACAUCUGUAGGUAGUUGGAAGUGUAGAGAGAAGAGAAGGUAAGACUUCUCAGUGAAUGGAAGGAUGUCUUGAUGGAAUUCUCGGGUGCCAA`, “RBNS enrichment (R)” read 4.29.

Set 2 — method: aptamer microarray, sandwich; molecule type: DNA with 2'F-ANA; sample: in vitro; concentration: 200 nM; added: Cy3 exosite-II aptamer, 400 nM; direction: higher = stronger binding; sequence: GGTTGGTGTGGTTGG
Target: Prothrombin, mature alpha-thrombin (F2, Homo sapiens, UniProt P00734)
Notes: whole 15-mer aptamer, many near background
Under “mean fluorescence intensity”, `2'F-ANA at 5 7 9 10 13` is recorded as 132 a.u.
`2'F-ANA at 2 3 6 9 10 15` — result for “mean fluorescence intensity”: 310 a.u.
Under “mean fluorescence intensity”, `2'F-ANA at 1 2 3 7 8 13 15` is recorded as 237 a.u.
Under “mean fluorescence intensity”, `2'F-ANA at 2 3 8 10 11 15` is recorded as 295 a.u.
`2'F-ANA at 3 6 7 8 9 10 11 12 14 15` — result for “mean fluorescence intensity”: 326 a.u.
`2'F-ANA at 4 5 8 10 11 14` — result for “mean fluorescence intensity”: 43.5 a.u.
`2'F-ANA at 1 3 4 5 6 7 9 14 15` — result for “mean fluorescence intensity”: 50.1 a.u.
For `2'F-ANA at 4 5 6 7 8 10 12 13 14 15`, “mean fluorescence intensity” read 45.2 a.u.
`2'F-ANA at 4 7 10 11 13 14 15` — result for “mean fluorescence intensity”: 67.5 a.u.
`2'F-ANA at 2 3 4 5 6 7 8 9 10 12 13` — result for “mean fluorescence intensity”: 124 a.u.
Under “mean fluorescence intensity”, `2'F-ANA at 2 3 5 8 10 11 12 15` is recorded as 60 a.u.
For `2'F-ANA at 2 3 5 12 13 14`, “mean fluorescence intensity” read 62.6 a.u.
`2'F-ANA at 4 5 6 9`: “mean fluorescence intensity” 72.8 a.u.
For `2'F-ANA at 5 6 7 8 9 13 15`, “mean fluorescence intensity” read 56.3 a.u.
For `2'F-ANA at 2 4 5 6 7 9 11 12 13 14 15`, “mean fluorescence intensity” read 50 a.u.
`2'F-ANA at 3 7 9 11 12 13 14`: “mean fluorescence intensity” 670 a.u.
Under “mean fluorescence intensity”, `2'F-ANA at 1 5 8 10 11 12 13 15` is recorded as 51.6 a.u.
`2'F-ANA at 1 2 3 5 8 9 13 14` — result for “mean fluorescence intensity”: 50.9 a.u.
`2'F-ANA at 2 6 7 10 11 12 13 14`: “mean fluorescence intensity” 87.8 a.u.
Under “mean fluorescence intensity”, `2'F-ANA at 1 2 3 4 5 8 10 11 13 14 15` is recorded as 120 a.u.

Set 3 — method: RNA Bind-n-Seq; molecule type: RNA; sample: in vitro; concentration: 1 µM; notes: whole 134-nt RNA, ends assumed; added: 150 mM KCl; relative to: input library; direction: higher = stronger binding
Target: Ras GTPase-activating protein-binding protein 1, C-terminal RGG region (G3BP1, Homo sapiens, UniProt Q13283)
Sequence of UniProt Q13283 (whole entry, looked up): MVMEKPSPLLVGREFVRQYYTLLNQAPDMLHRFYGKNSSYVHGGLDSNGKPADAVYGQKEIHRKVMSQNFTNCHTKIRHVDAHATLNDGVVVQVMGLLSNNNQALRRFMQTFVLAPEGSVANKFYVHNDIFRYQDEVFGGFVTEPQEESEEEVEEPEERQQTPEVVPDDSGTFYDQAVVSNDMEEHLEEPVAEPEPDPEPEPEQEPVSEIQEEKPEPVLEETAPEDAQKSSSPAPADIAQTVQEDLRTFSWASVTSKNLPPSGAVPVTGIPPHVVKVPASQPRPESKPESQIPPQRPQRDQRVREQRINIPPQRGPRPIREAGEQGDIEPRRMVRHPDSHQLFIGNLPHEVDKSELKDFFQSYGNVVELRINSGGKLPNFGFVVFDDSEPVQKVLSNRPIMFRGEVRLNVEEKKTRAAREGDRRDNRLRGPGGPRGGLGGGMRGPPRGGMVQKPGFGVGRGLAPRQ
For `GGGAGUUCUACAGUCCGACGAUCUGCGGGCCGAGAAUCGGGAGCUGGGCAAACGCGUACAGGCACUGCAGGAGGAGAGUCGCUACCUACGGGCAGUCUUAGCCAACGAGACUGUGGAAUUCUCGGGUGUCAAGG`, the log2 enrichment was -1.73.
`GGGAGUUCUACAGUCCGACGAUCUGGCCCUGGUGGCAUGCGGGGAGGAAGAGGUGGCCUCAUGCAUCGUGGUGGUCCCGGUGGAAUGUUCAGAGGUGGCCGUGGUGGAGACAGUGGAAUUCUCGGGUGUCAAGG` has a log2 enrichment of 1.54.
The log2 enrichment of `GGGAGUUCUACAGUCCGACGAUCAGUCCUGUGCUACACAUCGUAUGUACCGAAUCGGGAAAAAGGAAAAAGGAAAAAGGGGAAAGUAUUAUGUUACGCCGUUCGGAUCUGCACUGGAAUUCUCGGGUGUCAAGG` is reported as -1.67.
`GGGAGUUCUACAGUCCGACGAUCUGGGAGGUGGAUUUUGUUUAUUUUUUUAGCUCAUUUCCAGGGGUGGGAAUUUUUUUUUAAUAUGUGUCAUGAAUAAAGUUGGUUUUGAAAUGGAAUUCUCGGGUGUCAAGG` gave a log2 enrichment of 3.51.
With `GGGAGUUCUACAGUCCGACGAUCUAACAUUAGAGGAGGAUCUGAUGGAUAUGGCAGUGGACGUGGAUUUGGGGAUGGCUAUAAUGGGUAUGGAGGAGGACCUGGAGGUGGCAAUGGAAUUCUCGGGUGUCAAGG` the log2 enrichment was -0.632.
The log2 enrichment of `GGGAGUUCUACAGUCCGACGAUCAAGUCCUGUGCUACACAUCGUAUGUACCGAAUCGGUUUUUUUGGAAAAAGGAAAGGAAAGUAUUAUGUUACGCCGUUCGGAUCUGCACUUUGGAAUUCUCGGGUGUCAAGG` is reported as -2.29.
`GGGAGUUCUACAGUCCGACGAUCUGACCCUGGUGGCAUGCGGGGAGGAAGAGGUGGCCUCAUGGAUCGUGGUGGUCCCGGUGGAAUGUUCAGAGGUGGCCGUGGUGGAGACAGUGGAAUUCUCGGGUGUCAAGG` gave a log2 enrichment of 2.22.
`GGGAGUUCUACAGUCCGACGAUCCAAGUCCUGUGCUACACAUCGUAUGUACCGAAUCAAACCCAAACCCAAACCCAAAAAAGUAUUAUGUUACGCCGUUCGGAUCUGCACUUCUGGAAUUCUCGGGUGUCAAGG` gave a log2 enrichment of -0.866.
`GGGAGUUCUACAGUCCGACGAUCUCCUGUGCUACACAUCGUAUGUACCGAAUCGGGGAGGGGAAAAAGGGGUUUUUUUGGGGAAAGUAUUAUGUUACGCCGUUCGGAUCUGCAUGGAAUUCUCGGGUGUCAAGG` has a log2 enrichment of 1.57.
For `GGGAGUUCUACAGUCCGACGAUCGCCACCAUGCCCACCUAGUUUUUGCAUUUUUAGUGGAGGUGUGGUUUCACUGUGUUGGCCAGGCUGGUCUCUUAACUCCUGACCUCAGGUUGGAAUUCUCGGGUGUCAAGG`, the log2 enrichment was 0.152.

Set 4 — method: RNA Bind-n-Seq; molecule type: RNA; sample: in vitro; concentration: not given; relative to: input RNA pool; direction: higher = stronger binding
Target: RING finger protein unkempt homolog, zinc fingers 1-6, GST-SBP tag (UNK, Homo sapiens, UniProt Q9C0B0, residues 30-357)
Sequence of UniProt Q9C0B0 (30-357, looked up): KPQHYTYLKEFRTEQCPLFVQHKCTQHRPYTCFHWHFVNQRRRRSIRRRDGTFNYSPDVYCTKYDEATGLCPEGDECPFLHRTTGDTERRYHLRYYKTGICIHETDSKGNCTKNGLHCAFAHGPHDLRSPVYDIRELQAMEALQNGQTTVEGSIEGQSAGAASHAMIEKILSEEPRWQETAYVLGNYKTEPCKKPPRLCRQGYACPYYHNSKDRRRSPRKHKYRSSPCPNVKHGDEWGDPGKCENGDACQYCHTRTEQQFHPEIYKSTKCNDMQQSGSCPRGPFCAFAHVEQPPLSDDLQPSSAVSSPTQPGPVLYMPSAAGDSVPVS
Notes: RNA with constant flanks, human and mouse sites, ends assumed
For `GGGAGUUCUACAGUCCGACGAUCGGAGGCUUUCACCCCGUGGGUUUCCAUGUGGUCAACAUCCUCCUGCAUGGCAGCAUCUCCAUCCUCAUGCUGGAUGUCUUCUCAGUACUGUUUGGUGGCCUACAGUACACCGGUAAAGGCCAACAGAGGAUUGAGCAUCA`, the bound/input enrichment was 0.167 ratio.
`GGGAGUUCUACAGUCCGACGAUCAUUGUAAAUGAUUUGUAUCGUAUGAUUAAGGAUCUAAGGCACAAUAUUUGUCACUGUUCUAUUAGACUUUUUACUGAAAAUGAAUAAUGGUGUAAUGGUUCUCCUGGGGCUGUCACAUUUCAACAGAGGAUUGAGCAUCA` gave a bound/input enrichment of 1.14 ratio.
The bound/input enrichment of `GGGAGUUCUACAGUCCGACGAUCGUGACUAACUUGUUGCAGUUGCCUCAGUACUUUGAUUUGGAAAUAUAUACCACUGGACGAUUAGAAAAGCAUUUGGAUGCCUUAUUGCGACAGAUCCGGAAUAUUGUAGAGAAGCACACACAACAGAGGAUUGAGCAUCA` is reported as 0.848 ratio.
For `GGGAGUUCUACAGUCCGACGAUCCUCAAGUCACUCAUCUAAACGUGAGACUGUCUGCUCCACGCCAGGUUGGUUUUAUUGUUUUGUUUUUAAAGAGAGAAUACUUAAUUUUUACUUUAAAUAAAAACUACUUCUGACGGAAAACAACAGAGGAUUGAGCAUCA`, the bound/input enrichment was 0.125 ratio.
For `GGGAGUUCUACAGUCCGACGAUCGAGUUCCGAUCUGGAAAGGCUCCUAUCCUCAUUGCCACGGAUGUAGCCUCCCGUGGGCUAGAUGUGGAAGAUGUCAAGUUUGUCAUCAACUACGAUUAUCCAAACAGCUCAGAGGAUUAUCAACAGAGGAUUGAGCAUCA`, the bound/input enrichment was 0.0983 ratio.
With `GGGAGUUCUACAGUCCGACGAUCGAACAAUUUAAAUUAAUCCAAGCAGCAUAUGAUGUGUUGAGUGACCCUCAGGAAAGAGCAUGGUAUGAUAAUCAUAGAGAGGCCCUACUUAAAGGUGGGUUUGAUGGCGAAUAUCAAGAUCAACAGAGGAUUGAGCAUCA` the bound/input enrichment was 0.535 ratio.
The bound/input enrichment of `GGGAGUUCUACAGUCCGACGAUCGCUUCAAACUUGCAACGUGGAUUUCAUUUUUUUUUUUUUUUAAUUUAUUCUCUGGGAUCCCUUAGUAACCUGGCAUUGCUCAUUGCUCAUGAAUCCCUUAACAAUGGCGGAGCUGACGCGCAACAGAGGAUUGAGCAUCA` is reported as 2.52 ratio.
The bound/input enrichment of `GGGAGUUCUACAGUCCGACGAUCGGAGACUAGUUUCCGGCCUCAUUUUAAGGUUUCAUUUAUAAAUGUUCCUACUUAAAUCCUCCUUAGCAGACAAUUGGCUGGUAAAAUCAUUUUCUGUUAAUGAAGACAGUGGUUUUUAAGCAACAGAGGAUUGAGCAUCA` is reported as 0.467 ratio.
